Published values gathered from unrelated publications.
Protocols differ between the studies behind these lines.

NC(=O)c1ccccc1NC(=O)c1cc(-c2ccccc2)n(-c2ccccc2)n1  CC50 (HeLa; cell growth or viability): > 100 µM
O=C(Nc1ccc([C@H]2[C@@H](F)[C@@H](F)C[C@@H](F)[C@H]2F)cc1)C1CC1(F)F (stereo partly drawn)  hepatic clearance (liver microsome stability; cynomolgus liver microsomes; 1 µM): 4.9 mL/min/kg
CCCCCCC1CCC/C1=N\NC(N)=S (stereo not drawn)  CC50 (ldlA[mSR-BI] CHO; 24 h): 2.1 µM
O=C(Nc1ccc(N2CCNCC2)cc1)c1cc(-c2ccccc2)n(-c2ccccc2)n1  CC50 (HeLa; cell growth or viability): 24 µM
O=C(CC1CCOCC1)Nc1ccc([C@H]2[C@@H](F)[C@@H](F)C[C@@H](F)[C@H]2F)cc1  hepatic clearance (hepatocyte stability; cryopreserved rat hepatocytes; 1 µM): 22 mL/min/kg
Nc1ccc(CNC(=O)c2cc(-c3ccccc3)n(-c3ccccc3)n2)cc1  CC50 (HeLa; cell growth or viability): > 50 µM
O=C(O)c1ccc(Nc2c(-c3ccccc3)nc3cc(-c4ccccc4)ccn23)cc1  CC50 (MCF7; cell growth or viability; 72 h): 110 µM
O=C(Nc1cc(F)c(F)c(F)c1)c1ccc(F)c(S(=O)(=O)N2CCC(O)CC2)c1  CC50 (HepG2.2.15; cell growth or viability, CCK-8; 6 days): 6.9 µM
CC(=O)N(C)CCN1CCN(c2cnc3c(cc(C(=O)NCc4ccc(Cl)cc4)c(=O)n3CC(=O)N3CC(C)(F)C3)n2)C1=O  CC50 (MRC5; cell growth or viability, CCK-8): > 40 µM
OC(CNc1cccc(Cl)c1)CN1c2ccccc2Sc2ccccc21 (stereo not drawn)  CC50 (CEM-SS; cell growth or viability, XTT; 6 days): 9 µM
CCOC(=O)c1cn(CC(c2c[nH]c3cc(Br)ccc23)c2c[nH]c3cc(Br)ccc23)c(C)c1C(=O)OC  CC50 (HaCaT; cell growth or viability, MTS; 24 h): > 20 µM
O=C(Nc1cccc(CO)c1)c1cc(-c2ccccc2)n(-c2ccccc2)n1  CC50 (HeLa; cell growth or viability): > 50 µM
CC1(F)CN(C(=O)Cn2c(=O)c(C(=O)NCc3ccc(Cl)cc3)cc3nc(N4CCN(CCN)C4=O)cnc32)C1  CC50 (MRC5; cell growth or viability, CCK-8): > 40 µM
CC1(C)C(NC(=O)C(=NOC2(C(=O)O)CC2)c2csc(N)n2)C(=O)N1OS(=O)(=O)O (stereo not drawn)  CC50 (GES1; cell growth or viability): > 100 µM
CCOC(=O)c1c(C(=O)OC)cn(CC(c2cn(C)c3ccccc23)c2cn(C)c3ccccc23)c1C  CC50 (HaCaT; cell growth or viability, MTS; 24 h): > 20 µM
NC(=O)c1cccc(NC(=O)c2cccnc2N2CCOCC2)c1  CC50 (HeLa; cell growth or viability): > 50 µM
O=C(CC12CC3CC(CC(C3)C1)C2)NCCOCC(=O)NC1CCN(S(=O)(=O)c2cc(C(=O)Nc3cc(F)c(F)c(F)c3)ccc2F)CC1  CC50 (HepG2.2.15; cell growth or viability, CCK-8; 6 days): 59.3 µM
COCC(=O)N1CCc2cc(-c3csc(NC(=O)c4cc(OC)cc(OC)c4)n3)ccc21  CC50 (ldlA[mSR-BI] CHO; 24 h): > 35 µM

Repeated from above:
Nc1ccc(CNC(=O)c2cc(-c3ccccc3)n(-c3ccccc3)n2)cc1  CC50 (HeLa; cell growth or viability): > 50 µM
O=C(O)c1ccc(Nc2c(-c3ccccc3)nc3cc(-c4ccccc4)ccn23)cc1  CC50 (MCF7; cell growth or viability; 72 h): 110 µM
O=C(Nc1cc(F)c(F)c(F)c1)c1ccc(F)c(S(=O)(=O)N2CCC(O)CC2)c1  CC50 (HepG2.2.15; cell growth or viability, CCK-8; 6 days): 6.9 µM
